Experimental data from different studies.
Every numbered part comes from another study and shows a few of its results, in no order. Substitutions count along the parent as printed.

Series 1
Target: Centromere-binding protein 1, full length, N-terminal tag (CBF1, Saccharomyces cerevisiae, UniProt P17106, residues 1-351)
Chain of UniProt P17106 (whole entry, looked up): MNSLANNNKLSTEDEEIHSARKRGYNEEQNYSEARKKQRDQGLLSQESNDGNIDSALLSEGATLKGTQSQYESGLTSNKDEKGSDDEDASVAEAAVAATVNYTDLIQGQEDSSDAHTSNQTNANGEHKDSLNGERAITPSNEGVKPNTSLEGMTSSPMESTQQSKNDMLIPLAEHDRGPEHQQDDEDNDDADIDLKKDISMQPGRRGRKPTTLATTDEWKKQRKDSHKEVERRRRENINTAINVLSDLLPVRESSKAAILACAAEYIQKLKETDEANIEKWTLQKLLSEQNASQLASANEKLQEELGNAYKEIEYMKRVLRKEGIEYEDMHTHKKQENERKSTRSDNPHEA
Method: protein-binding microarray
Molecule type: double-stranded DNA, one strand shown
Matrix: in vitro
Tested at: 0.8 µM
Notes: whole 60-bp probe, no competitor
Reading: higher = stronger binding
Measurement: fluorescence intensity
CTAAGAAGGAAAGCGCACATGTGATATCTCGCATTCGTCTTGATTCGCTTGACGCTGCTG: 1730 a.u.
CTATGCAATCACCGTGACACCTTAAATATTTGCTTCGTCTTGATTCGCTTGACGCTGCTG: 730 a.u.
GAAGTACGCTATCATGTGATGAAATATATTCCCTAGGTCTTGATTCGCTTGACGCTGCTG: 3550 a.u.
CTAAATCCAATTAGCGACATCACCGAGAAAGTATTCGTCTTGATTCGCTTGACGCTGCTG: 506 a.u.
CTATTTCCAGCGGATGGTGACGCGAGGCATCCGTTCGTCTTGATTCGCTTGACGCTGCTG: 511 a.u.
GAATAACACCGGGTTCTGATGTTATCACCTACTTAGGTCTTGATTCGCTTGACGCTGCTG: 478 a.u.
CTAGTATTTTACTGTGACGTACTTTTGCGCGCGTTCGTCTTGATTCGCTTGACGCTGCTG: 526 a.u.
CTAGTTGGGTGTGTGCGTGTGTGTATGTTTCCATTCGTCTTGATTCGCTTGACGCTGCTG: 561 a.u.
CTACAAATAAAGTTGCATGTGGATTATTATGTTTTCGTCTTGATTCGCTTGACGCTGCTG: 673 a.u.
GAAGTTCCGCACTGTGACCACCGGAACGTACGTTAGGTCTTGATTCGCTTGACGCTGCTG: 529 a.u.
CTAAGAATGGATGGAAACGTGGCAAGTCATATCTTCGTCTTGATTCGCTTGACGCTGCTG: 586 a.u.
CTATATGAATCTGAGAGTGTGACCATATGGTGGTTCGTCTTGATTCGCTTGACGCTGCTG: 672 a.u.
GAAGAATATTCAAGCCATGTGCAGAAATAGACGTAGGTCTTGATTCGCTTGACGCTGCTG: 949 a.u.
CTATTTCAGGGACATCATGTTGTAAAAGAAAAATTCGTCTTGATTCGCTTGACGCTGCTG: 593 a.u.
GAATAACTCATTATCCTCGTGAAATATATATATTAGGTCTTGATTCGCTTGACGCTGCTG: 620 a.u.
CTACATTAATGCCTTCACGGGAATACGTATAGATTCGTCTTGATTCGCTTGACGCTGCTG: 562 a.u.
CTAACACGTGATATATTTGAAATGTGATTATATTTCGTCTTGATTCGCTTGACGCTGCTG: 11900 a.u.
CTAAATTTGGAACAGTTCGTGACTGTTTATTAATTCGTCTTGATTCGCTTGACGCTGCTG: 725 a.u.
CTAGGATTCGGACTCCACGTTAATTGACAGTGATTCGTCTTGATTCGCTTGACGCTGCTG: 569 a.u.
CCTAACTACTATAACCACGTCGTATAGCTTCGTACAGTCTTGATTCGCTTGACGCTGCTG: 533 a.u.
CTACTTAATGGAACAAACGTGATCTGGGATAAATTCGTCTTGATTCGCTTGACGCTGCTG: 1700 a.u.
GAAGATATCTTTTGAAACATCAGAAGTGTCCGTTAGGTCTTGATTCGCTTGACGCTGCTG: 546 a.u.
CTAATGCCCTGCTATCTTCACGTGGTTGAATAGTTCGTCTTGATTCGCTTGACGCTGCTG: 4540 a.u.
TGTACGAAGCTATCACGTGTGTTTATAGTAGTTAGGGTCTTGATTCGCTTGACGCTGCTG: 6650 a.u.
GAACCACACGATTATCACGACTACTACCATAATTAGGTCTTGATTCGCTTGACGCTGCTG: 565 a.u.

Series 2
Target: Sal-like protein 4, full length isoform A (SALL4, Homo sapiens, UniProt Q9UJQ4, residues 1-1053)
Chain of UniProt Q9UJQ4 (whole entry, looked up): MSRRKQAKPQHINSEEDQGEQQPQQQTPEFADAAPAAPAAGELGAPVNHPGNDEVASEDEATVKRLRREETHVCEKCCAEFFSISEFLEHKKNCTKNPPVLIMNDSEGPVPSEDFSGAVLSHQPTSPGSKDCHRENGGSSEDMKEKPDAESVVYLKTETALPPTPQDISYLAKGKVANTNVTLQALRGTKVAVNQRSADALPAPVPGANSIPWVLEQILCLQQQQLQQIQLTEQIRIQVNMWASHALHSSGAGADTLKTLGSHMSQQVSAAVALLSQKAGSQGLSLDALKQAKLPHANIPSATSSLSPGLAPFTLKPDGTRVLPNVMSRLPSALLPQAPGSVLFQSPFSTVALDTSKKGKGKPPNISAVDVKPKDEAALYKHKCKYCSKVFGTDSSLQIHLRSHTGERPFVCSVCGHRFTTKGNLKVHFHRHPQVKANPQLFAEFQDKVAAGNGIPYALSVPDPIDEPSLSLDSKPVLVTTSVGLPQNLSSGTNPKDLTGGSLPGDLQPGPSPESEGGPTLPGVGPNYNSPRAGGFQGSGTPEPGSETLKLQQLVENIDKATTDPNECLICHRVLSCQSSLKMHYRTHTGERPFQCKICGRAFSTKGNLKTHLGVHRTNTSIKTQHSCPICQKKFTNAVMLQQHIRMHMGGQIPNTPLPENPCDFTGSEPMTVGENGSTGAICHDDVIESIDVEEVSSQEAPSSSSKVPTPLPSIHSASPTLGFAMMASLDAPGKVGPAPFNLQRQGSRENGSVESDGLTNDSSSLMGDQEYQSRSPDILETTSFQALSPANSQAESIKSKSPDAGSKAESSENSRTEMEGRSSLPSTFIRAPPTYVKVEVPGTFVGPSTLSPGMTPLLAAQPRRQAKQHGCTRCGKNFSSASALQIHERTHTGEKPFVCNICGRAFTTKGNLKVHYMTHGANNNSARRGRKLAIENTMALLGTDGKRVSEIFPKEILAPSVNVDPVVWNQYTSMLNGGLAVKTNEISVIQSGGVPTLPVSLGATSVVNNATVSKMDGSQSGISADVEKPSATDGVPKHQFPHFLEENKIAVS
Method: universal PBM
Molecule type: double-stranded DNA, one strand shown
Matrix: in vitro
Tested at: 600 nM
Notes: 8-mer, flanks averaged, mean of replicates
Reading: higher = stronger binding
Measurement: E-score
ACGATTGG: 0.138
GCCTAGGC: -0.246
CGTTTGAA: 0.119
TCATCCCA: 0.0117
AGGGGACA: -0.2
GGGAATAC: 0.00347
AGGGAACA: 0.0198
AATTCCAT: 0.293
CAGTTGGC: -0.16
GGAGGTGA: -0.147
AATTATAA: 0.428
GGAATAGA: 0.0921
ACTGGATG: -0.0938
CAATCTGA: 0.0503
GACGTAGA: -0.172
CCCATCGG: -0.205
GAAGAATA: 0.21
CTACTATC: 0.162
ACTGTGAC: -0.0288
AAGCATGG: -0.0664
AACGTGTA: 0.148
AAGCACGC: -0.146
AAACCCCG: -0.146
CAACAATC: 0.133
ACTACAAG: 0.157

Series 3
Target: Interferon regulatory factor 5, full length, phosphomimetic (IRF5, Homo sapiens, UniProt Q13568-2, residues 1-514, S451D/S453D/S456D/S462D)
Method: protein-binding microarray
Molecule type: double-stranded DNA, one strand shown
Matrix: in vitro
Tested at: 940 nM top
Notes: 60-bp whole probe
Together with: salmon DNA 0.4 mg/ml
Reference: random background probes
Reading: higher = stronger binding
Measurement: fitted relative affinity
Shared flanks, not repeated: GCCTAGCAC … GTCTTGATTCGCTTGACGCTGCTG
GAGATTTTCATTATTGCTTCGTGCTAG: 1.6 z-score
TTACGTATCGGGTATCGGTTAGTGCTA: 6.3 z-score
GACGGACTGGAAACTGGGGACGTGCTA: -0.593 z-score
TTAGGTCTCAGACTGGGTTAGTGCTAG: -0.282 z-score
TTAGGTTTCGATTTCGGTTAGTGCTAG: 12.5 z-score
TTAGGTTTCGACACTGGGTTTGTGCTA: 8.43 z-score
TTAGATACCAGTATCGATTAGTGCTAG: 4.63 z-score
GACGGTTTTGGGTTTCGGGACGTGCTA: 3.92 z-score
GACGGACTGGGACTGGGTACGTGCTAG: -0.676 z-score
TTAGGTTTCCTTATCCTTAAGTGCTAG: 2.46 z-score
GACGGTATTGGGTTTCGGGACGTGCTA: 3.2 z-score
TTAGGTTCCGGTATCGGTTAGTGCTAG: 6.8 z-score
CGAGTTTCTATTTTCTGAATGTGCTAG: 6.12 z-score
GTGACTCTGAACCTTGGGCTGTGCTAG: -0.494 z-score
GACGGTCTGCTTCTCCTGACGTGCTAG: 0.118 z-score
TTAGAACTGAGACTGGATAAGTGCTAG: -0.187 z-score
GAAGAACTGGGGTTTCGAGACGTGCTA: 1.66 z-score

Series 4
Target: CCNB2, cyclin fold, Cln2 fusion (human)
Method: yeast growth competition, sequencing
Matrix: yeast
Notes: weak parent motif
Reference: not given
Reading: higher = stronger binding
Measurement: normalised enrichment score
Parent: CDC6 docking peptide (human); TLKGRRLVFDNQL
TLKGRRLVGDNQL [F9G]: -0.473
TQKGRRLVFDNQL [L2Q]: -0.225
TLKGRRTVFDNQL [L7T]: -0.143
TLKGRRLVFDNQT [L13T]: -0.104
TLKGRRLVFDNQG [L13G]: -0.0513
TLKGRRLVFQNQL [D10Q]: 0.461
TLKGRRLVFDDQL [N11D]: -0.0989
TLKPRRLVFDNQL [G4P]: 0.783
TLKGRRLVFDYQL [N11Y]: 0.238
TLKGRRHVFDNQL [L7H]: 0.546
TLKGRRLCFDNQL [V8C]: 0.62
TLKGRRLVFDNQW [L13W]: 0.0904
TLKGRRLVSDNQL [F9S]: 0.214
TLKGRRLVFDKQL [N11K]: 0.502
TLMGRRLVFDNQL [K3M]: 0.224
TLKGRTLVFDNQL [R6T]: 0.36
TLKGRRLVFDNQI [L13I]: 0.129
TLKGRRLVFDMQL [N11M]: 0.0289
TLKGRRYVFDNQL [L7Y]: 0.581
TLKGRRLMFDNQL [V8M]: -0.0295
TLKGRRIVFDNQL [L7I]: 0.78
TLKGRRLVFDNDL [Q12D]: 0.229
TLIGRRLVFDNQL [K3I]: 0.407
TLKARRLVFDNQL [G4A]: 0.16

Series 5
Target: TATA-box-binding protein 1 (TBP1, Arabidopsis thaliana, UniProt P28147, residues 1-200, full length assumed)
Method: protein-binding microarray
Molecule type: double-stranded DNA, one strand shown
Matrix: in vitro
Tested at: not given
Notes: k-mer, scored over probes, only values ≥0.25
Reading: higher = stronger binding
Measurement: E-score
Target sequence (chain): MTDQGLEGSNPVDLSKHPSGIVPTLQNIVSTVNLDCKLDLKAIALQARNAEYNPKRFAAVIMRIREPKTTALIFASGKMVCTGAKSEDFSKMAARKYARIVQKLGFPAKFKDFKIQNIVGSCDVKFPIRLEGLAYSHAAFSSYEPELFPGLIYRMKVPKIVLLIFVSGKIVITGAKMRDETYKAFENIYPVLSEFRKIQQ
ACTATAA: 0.394
TATTACA: 0.263
GTAATAA: 0.31
TATATAA: 0.494
ATAATTA: 0.373
AATAATA: 0.371
ATTTAAG: 0.451
ATTATCA: 0.338
AAATACC: 0.299
TAATACA: 0.311
GTGATAA: 0.254
TAAAACA: 0.317
AATATAT: 0.479
AACATAT: 0.294
CATATTA: 0.377
AGATTTA: 0.334
AACTATT: 0.279
AATATCT: 0.323
CTATAAA: 0.44
AAATTAT: 0.377
CCTTAAA: 0.369
AGACTAT: 0.253
AATATAC: 0.413
TATTAGA: 0.31
GTCTTTA: 0.301

Series 6
Target: TAR DNA-binding protein 43, full length, His tag (TARDBP, Homo sapiens, UniProt Q13148, residues 1-414)
Method: RNA Bind-n-Seq
Molecule type: RNA
Matrix: in vitro
Tested at: 20 nM
Notes: 6-mer, flanks averaged, single round
Together with: 150 mM KCl
Reference: input library
Reading: higher = stronger binding
Measurement: 6-mer enrichment (R)
UCCACA: 0.589
CGUCAA: 0.664
UGUUUA: 0.695
GUUAAU: 0.656
AAAACA: 0.642
UAUAGG: 0.937
CGCCAG: 0.903
UGGUGC: 1.29
CCCGAG: 0.937
UGUCGC: 0.816
UAGCGG: 1.68
CCCGGA: 0.787
ACUCCC: 0.686
GUAUCC: 0.63
CCGAAG: 0.893
GUCGCA: 0.895
CAAGUC: 0.609
CUAACG: 0.668

Other studies, line by line
PhoQ, residues 284 288 289 292 302 303 TAVSDG
fold induction (PhoP, residues 12 14 15 18 19 NIMAP (Escherichia coli, UniProt P23836); Sort-seq, refers to: YFP reporter; E. coli; PhoQ-PhoP variant library, together with: 10 µM Mg2+; reference: high Mg2+ state, higher = stronger signaling): 0.566

Repeated from above (series 1):
CTAAGAATGGATGGAAACGTGGCAAGTCATATCTTCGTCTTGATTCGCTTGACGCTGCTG: 586 a.u.
CTATTTCAGGGACATCATGTTGTAAAAGAAAAATTCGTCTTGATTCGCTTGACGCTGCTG: 593 a.u.
GAAGATATCTTTTGAAACATCAGAAGTGTCCGTTAGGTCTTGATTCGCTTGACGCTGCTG: 546 a.u.
GAAGAATATTCAAGCCATGTGCAGAAATAGACGTAGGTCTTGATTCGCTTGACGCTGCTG: 949 a.u.
CTACTTAATGGAACAAACGTGATCTGGGATAAATTCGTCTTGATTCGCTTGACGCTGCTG: 1700 a.u.
CTAAATCCAATTAGCGACATCACCGAGAAAGTATTCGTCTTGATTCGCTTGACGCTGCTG: 506 a.u.
CTAGTATTTTACTGTGACGTACTTTTGCGCGCGTTCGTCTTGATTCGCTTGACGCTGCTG: 526 a.u.
GAAGTACGCTATCATGTGATGAAATATATTCCCTAGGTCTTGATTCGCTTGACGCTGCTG: 3550 a.u.
